Assay results collected from several papers.
Lines come from different studies, so protocols differ. ± gives the spread as reported.
Cell line: SH-SY5Y

COc1c(C)c(OS(=O)(=O)c2ccccc2)c(C)c2c1C(=O)CC(c1ccccc1)O2 (stereo not shown)
IC50 (cell growth or viability, SRB; 72 h): 44700 nM

O=C(O)CCCOc1ccc(F)cc1-c1cc(-c2ccccc2C(F)(F)F)n(-c2ccccc2)n1
BAX mitochondrial translocation (0.3 µM, with: rotenone 1 µM): decreased

Cc1cc(NC(=O)c2cccc(-n3cc(NC(=O)Nc4ccc(Cl)cc4)cn3)c2)ccn1
IC50 (mitochondrial depolarization; pretreatment 1 h, with: 35 µM 6-OHDA, 4 h): 46 ± 29 nM

O=C(Nc1ncc(N2CCOCC2)s1)C12CC3CC(CC(C3)C1)C2
inhibition (p70S6K phosphorylation, AlphaScreen; 20 µM): 26.1 ± 11.3%

CC[C@H](C)[C@H]1C(=O)N[C@@H]([C@@H](C)O)C(=O)N[C@@H](C(C)C)C(=O)N[C@@H](CCCCN)C(=O)NCCC[C@H](N)C(=O)N[C@@H](Cc2ccc(O)cc2)C(=O)N[C@@H](CC(C)C)C(=O)N[C@@H](CC(C)C)C(=O)N[C@@H](Cc2ccc(I)cc2)C(=O)N[C@@H](Cc2ccc(O)cc2)C(=O)N[C@@H]([C@@H](C)O)C(=O)N[C@@H](CCC(=O)O)C(=O)NCCC[C@H](N)C(=O)N[C@@H](CCCCN)C(=O)N[C@@H](C(C)C)C(=O)N[C@@H]([C@@H](C)O)C(=O)N1C
LDH release (cytotoxicity; 25 µM): 20 ± 2%

CC[C@@]1(c2cccc(C(F)(F)F)c2)C2=C(Nc3n[nH]cc31)[C@H](F)C(C)(C)CC2=O (single isomer, unassigned)
EC50 (β-catenin nuclear translocation; 6 h): 3020 nM

CCCCC1OC(=O)C2=CCCCC21 (stereo not shown)
EC50 (neuroprotection, CCK-8; with: 6-OHDA 200 µmol/L): 962 nM

COc1ccc(NC(=O)COc2ccc(/C=C/C(C)=N/O)cc2OC)cc1
TNF-α expressing cells (flow cytometry; 20 µM, with: amyloid beta 10 µM): 15.3%

Cc1c(C)c(C)[c-](C)c1C.O=C1c2cccc[n+]2[Ir]([Cl])[N]1CCCCCCCCCC[P+](c1ccccc1)(c1ccccc1)c1ccc2ccc3cccc4ccc1c2c34.[Br-]
viability fold enhancement (SRB; 5 µM, 3 h, with: aldehyde Ia 20 µM, 24 h; reference: aldehyde Ia alone): 1.8 fold

CCn1cc(/C=C/c2ccc3ccccc3[n+]2CC)c2ccccc21
IC50 (cell growth or viability, MTT; 24 h): 870 nM

Cc1cc(NC(=O)c2cccc(-n3cc(NC(=O)Nc4ccccc4Cl)cn3)c2)ccn1
EC50 (c-Jun phosphorylation, inhibitor, in-cell Western; with: 6-OHDA): < 1000 nM

CC(C)C[C@@H]1NC(=O)[C@H](CC(C)C)NC(=O)[C@H](Cc2ccc(O)cc2)NC(=O)[C@@H](N)CCCNC(=O)[C@H](CCCCN)NC(=O)[C@H](C(C)C)NC(=O)[C@H]([C@@H](C)O)NC(=O)[C@H](C)N(C)C(=O)[C@H]([C@@H](C)O)NC(=O)[C@H](C(C)C)NC(=O)[C@H](CCCCN)NC(=O)[C@@H](N)CCCNC(=O)[C@H](CCC(=O)O)NC(=O)[C@H]([C@@H](C)O)NC(=O)[C@H](Cc2ccc(O)cc2)NC(=O)[C@H](Cc2ccc(I)cc2)NC1=O
LDH release (cytotoxicity; 25 µM): 5 ± 1%

CCCCCCCCCC[N]1C(=O)c2cccc[n+]2[Ir]1[Cl].Cc1c(C)c(C)[c-](C)c1C
ROS level (DCFDA; concentration not given, with: MPP+; reference: untreated): 6 fold

CC(C)C[C@@H]1NC(=O)[C@H](CC(C)C)NC(=O)[C@H](Cc2ccc(O)cc2)NC(=O)[C@@H](N)CCCNC(=O)[C@H](CCCCN)NC(=O)[C@H](C(C)C)NC(=O)[C@H](C)NC(=O)[C@H](C)N(C)C(=O)[C@H](C)NC(=O)[C@H](C(C)C)NC(=O)[C@H](CCCCN)NC(=O)[C@@H](N)CCCNC(=O)[C@H](CCC(=O)O)NC(=O)[C@H]([C@@H](C)O)NC(=O)[C@H](Cc2ccc(O)cc2)NC(=O)[C@H](Cc2ccc(I)cc2)NC1=O
LDH release (cytotoxicity; 25 µM): 37 ± 4%

Cc1c(C)c(C)[c-](C)c1C.O=C([N-]c1ccccc1)c1ccccn1.[Cl-].[Ir+3]
viability fold enhancement (SRB; 5 µM, 3 h, with: aldehyde Ia 20 µM, 24 h; reference: aldehyde Ia alone): 1.3 fold

CC(C)C[C@@H]1NC(=O)[C@H](CC(C)C)NC(=O)[C@H](Cc2ccc(O)cc2)NC(=O)[C@@H](N)CCCNC(=O)[C@H](CCCCN)NC(=O)[C@H](C(C)C)NC(=O)[C@H]([C@@H](C)O)NC(=O)[C@H](C(C)C)N(C)C(=O)[C@H]([C@@H](C)O)NC(=O)[C@H](C(C)C)NC(=O)[C@H](CCCCN)NC(=O)[C@@H](N)CCCNC(=O)[C@H](CCC(=O)O)NC(=O)[C@H]([C@@H](C)O)NC(=O)[C@H](Cc2ccc(O)cc2)NC(=O)[C@H](Cc2ccc(I)cc2)NC1=O
LDH release (cytotoxicity; 25 µM): 14 ± 2%

Cc1c(C)c(C)[c-](C)c1C.O=C1c2cccc[n+]2[Ir]([Cl])[N]1CCCCCCCCCC[P+](c1ccccc1)(c1ccccc1)c1ccccc1.[Br-]
turnover number (4-hydroxynonenal reduction, HPLC): 73

CC(C)C[C@@H]1NC(=O)[C@H](CC(C)C)NC(=O)[C@H](Cc2ccc(O)cc2)NC(=O)[C@@H](N)CCCNC(=O)[C@H](CCCCN)NC(=O)[C@H](C(C)C)NC(=O)[C@H](C)NC(=O)[C@H](CC(C)C)N(C)C(=O)[C@H](C)NC(=O)[C@H](C(C)C)NC(=O)[C@H](CCCCN)NC(=O)[C@@H](N)CCCNC(=O)[C@H](CCC(=O)O)NC(=O)[C@H]([C@@H](C)O)NC(=O)[C@H](Cc2ccc(O)cc2)NC(=O)[C@H](Cc2ccc(I)cc2)NC1=O
LDH release (cytotoxicity; 25 µM): 45 ± 6%

Cc1cc(NC(=O)c2cccc(-n3cc(NC(=O)Nc4ccc(F)cc4)cn3)c2)ccn1
IC50 (mitochondrial depolarization; pretreatment 1 h, with: 35 µM 6-OHDA, 4 h): 57 ± 48 nM

Repeated from above:
CC(C)C[C@@H]1NC(=O)[C@H](CC(C)C)NC(=O)[C@H](Cc2ccc(O)cc2)NC(=O)[C@@H](N)CCCNC(=O)[C@H](CCCCN)NC(=O)[C@H](C(C)C)NC(=O)[C@H]([C@@H](C)O)NC(=O)[C@H](C)N(C)C(=O)[C@H]([C@@H](C)O)NC(=O)[C@H](C(C)C)NC(=O)[C@H](CCCCN)NC(=O)[C@@H](N)CCCNC(=O)[C@H](CCC(=O)O)NC(=O)[C@H]([C@@H](C)O)NC(=O)[C@H](Cc2ccc(O)cc2)NC(=O)[C@H](Cc2ccc(I)cc2)NC1=O
LDH release (cytotoxicity; 25 µM): 5 ± 1%

CC[C@H](C)[C@H]1C(=O)N[C@@H]([C@@H](C)O)C(=O)N[C@@H](C(C)C)C(=O)N[C@@H](CCCCN)C(=O)NCCC[C@H](N)C(=O)N[C@@H](Cc2ccc(O)cc2)C(=O)N[C@@H](CC(C)C)C(=O)N[C@@H](CC(C)C)C(=O)N[C@@H](Cc2ccc(I)cc2)C(=O)N[C@@H](Cc2ccc(O)cc2)C(=O)N[C@@H]([C@@H](C)O)C(=O)N[C@@H](CCC(=O)O)C(=O)NCCC[C@H](N)C(=O)N[C@@H](CCCCN)C(=O)N[C@@H](C(C)C)C(=O)N[C@@H]([C@@H](C)O)C(=O)N1C
LDH release (cytotoxicity; 25 µM): 20 ± 2%
